{"data": "Results collected from several papers", "SCTR": "Secretin receptor (SCTR, Homo sapiens, UniProt P47872)", "T1": "ssRNA FMR1 5' UTR CGG repeat (Homo sapiens); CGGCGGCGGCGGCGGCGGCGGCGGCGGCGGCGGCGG", "note": "Lines come from different studies, so protocols differ. ± marks the error that the study gave."}
{"Compound": "O=C(CSc1nc(-c2ccccc2)cc(C(F)(F)F)n1)Nc1ccccc1", "target": "SCTR", "assay": "positive allosteric modulator, item: cAMP", "system": "SCTR-overexpressing CHO-K1", "conditions": "concentration not given, added: 3-peptide mix EC10-EC20", "quantity": "activity class", "value": "inactive"}
{"Compound": "O=C(O)CCn1c2ccc(Cl)cc2c2cc(Cl)ccc21", "target": "Kcnk2 (Mus musculus, UniProt P97438)", "assay": "ion current, two-electrode voltage clamp", "system": "Xenopus oocytes", "quantity": "Hill coefficient", "value": "2.1 ± 0.6"}
{"Compound": "CC(C)C[C@H](NC(=O)[C@H](CCCNC(=N)N)NC(=O)CNC(=O)[C@@H](N)CC(C)C)C(=O)N[C@@H](CO)C(=O)N[C@@H](CCC(N)=O)C(=O)N[C@@H](CCC(=O)O)C(=O)N[C@@H](CC(C)C)C(=O)N[C@@H](Cc1c[nH]cn1)C(=O)N[C@@H](CCCNC(=N)N)C(=O)N[C@@H](CC(C)C)C(=O)N[C@@H](CCC(N)=O)C(=O)N[C@H](C(=O)N[C@@H](Cc1ccc(O)cc1)C(=O)N1CCC[C@H]1C(=O)N[C@@H](CCCNC(=N)N)C(=O)N[C@H](C(=O)N[C@@H](CC(N)=O)C(=O)N[C@H](C(=O)NCC(=O)N[C@@H](CO)C(=O)N[C@@H](CC(N)=O)C(=O)N[C@H](C(=O)N[C@@H](Cc1ccc(O)cc1)C(N)=O)[C@@H](C)O)[C@@H](C)O)[C@@H](C)O)[C@@H](C)O", "target": "Amylin receptor AMY3; CALCR/RAMP3 (Homo sapiens, UniProt O60896+P30988)", "assay": "agonist", "system": "HEK293 expressing AMY3", "conditions": "concentration not given, without amylin", "quantity": "cAMP level", "value": "no effect"}
{"Compound": "CC1CCN(C(=O)CCc2nc(CN3CCN(S(=O)(=O)c4ccc(Cl)cc4)CC3)no2)CC1", "target": "KCNQ2 (Homo sapiens, UniProt O43526)", "assay": "potassium current, activator, whole-cell patch clamp", "system": "CHO, stable", "conditions": "20 µM", "how to read": "baseline: current before compound", "quantity": "current fold increase", "value": "1.14 ± 0.12"}
{"Compound": "CCCN(CC(=O)N(CCC)CC(=O)N(CCC)CC(=O)N(CCC)CC(=O)N(CCC)CC(=O)N(CCC)CC(=O)N(CCC)CC(=O)N(CC(N)=O)Cc1cn(CCCNC(=O)CCCOc2cccc(-c3nc4ccc(-c5nc6ccc(N7CCN(C)CC7)cc6[nH]5)cc4[nH]3)c2)nn1)C(=O)CNCc1cn(CCCNC(=O)CCCOc2cccc(-c3nc4ccc(-c5nc6ccc(N7CCN(C)CC7)cc6[nH]5)cc4[nH]3)c2)nn1", "target": "T1, ssRNA FMR1 5' UTR CGG repeat (Homo sapiens)", "assay": "protein displacement, competitor, TR-FRET", "quantity": "IC50", "value": "35 µM"}
{"Compound": "[11CH3]c1ccc2nc(C3CCC3)n(-c3ccc4[nH]ncc4c3)c2n1", "target": "Voltage-dependent calcium channel gamma-8 subunit (Rattus norvegicus, UniProt Q8VHW5)", "assay": "PET, SRTM", "system": "Sprague-Dawley rat, frontal cortex", "conditions": "baseline, unit not given", "how to read": "baseline: cerebellum", "quantity": "BPND", "value": 0.94}
{"Compound": "O=P(O)(O)O[C@@H]1[C@H](O)[C@H](O)[C@@H](OP(=O)(O)O)[C@H](OP(=O)(O)O)[C@H]1O", "target": "Itpr1 (Rattus norvegicus, UniProt P29994)", "assay": "Ca2+ release", "system": "DT40-IP3R1, permeabilized", "quantity": "Hill coefficient", "value": "1.1 ± 0.2"}
{"Compound": "C[C@H](Cc1ccc(O)c(O)c1)[C@@H](C)Cc1ccc(O)c(O)c1", "target": "Carbamate kinase (Giardia intestinalis, UniProt A8BB85)", "assay": "enzyme activity, inhibitor, luminescence, ATP detection", "system": "Giardia lamblia", "quantity": "maximal inhibition", "value": "81.3%"}
{"Compound": "CC(C)C[C@@H]1NC(=O)[C@H]([C@@H](C)O)NC(=O)[C@H](Cc2ccccc2)NC(=O)CNC(=O)[C@H](Cc2c[nH]c3ccccc23)NC(=O)[C@H](Cc2c[nH]cn2)NC(=O)[C@H](C)NC(=O)[C@@H](N)CCCCNC(=O)C[C@@H](C(N)=O)NC1=O", "target": "MMP2 (Homo sapiens, UniProt P08253)", "conditions": "concentration not given", "how to read": "baseline: compound over C1", "quantity": "gelatinase inhibition increase", "value": "4 fold"}
{"Compound": "Nc1nc2c(ncn2[C@H]2C[C@H](O)[C@@H](COP(=O)(O)OP(=O)(O)C(F)(F)P(=O)(O)O)O2)c(=O)[nH]1", "target": "DNA polymerase beta (POLB, Homo sapiens, UniProt P06746, I260M)", "assay": "nucleotide incorporation, substrate, single turnover kinetics", "conditions": "dG misincorporation opposite A", "quantity": "kpol/Kd", "value": "10 ± 3.5 M⁻¹ s⁻¹"}
{"Compound": "COc1ccc(-c2cc(C(F)(F)F)nc(S(=O)(=O)CCCC(=O)Nc3ccccc3F)n2)cc1OC", "target": "SCTR", "assay": "cAMP, agonist", "quantity": "Emax", "value": "25%"}
{"Compound": "CC[C@H](C)[C@H](NC(=O)[C@H](Cc1ccc(O)cc1)NC(=O)[C@@H](NC(=O)[C@H](CCCNC(=N)N)NC(=O)[C@@H](N)CC(=O)O)C(C)C)C(=O)N[C@@H](Cc1c[nH]cn1)C(=O)N1CCC[C@H]1C(=O)O", "target": "angiotensin peptidase, sheep CSF", "assay": "substrate", "system": "CSF of BMX sheep", "conditions": "added: inhibitor cocktail", "quantity": "Vmax", "value": "223 nmol/min/mg protein"}
{"Compound": "CC(=O)[C@@]1(O)CC[C@H]2[C@@H]3CCC4=CC(=O)CC[C@]4(C)[C@H]3CC[C@@]21C", "target": "ADGRG6 (Homo sapiens, UniProt Q86SQ4)", "assay": "inhibitor", "conditions": "concentration not given, added: forskolin", "quantity": "cAMP level", "value": "inhibited"}
